Results collected from several papers.
Protocols differ between the studies behind these lines.
Target: Rho-associated protein kinase 2 (ROCK2, Homo sapiens, UniProt O75116)
UniProt O75116, sequence (whole entry, looked up): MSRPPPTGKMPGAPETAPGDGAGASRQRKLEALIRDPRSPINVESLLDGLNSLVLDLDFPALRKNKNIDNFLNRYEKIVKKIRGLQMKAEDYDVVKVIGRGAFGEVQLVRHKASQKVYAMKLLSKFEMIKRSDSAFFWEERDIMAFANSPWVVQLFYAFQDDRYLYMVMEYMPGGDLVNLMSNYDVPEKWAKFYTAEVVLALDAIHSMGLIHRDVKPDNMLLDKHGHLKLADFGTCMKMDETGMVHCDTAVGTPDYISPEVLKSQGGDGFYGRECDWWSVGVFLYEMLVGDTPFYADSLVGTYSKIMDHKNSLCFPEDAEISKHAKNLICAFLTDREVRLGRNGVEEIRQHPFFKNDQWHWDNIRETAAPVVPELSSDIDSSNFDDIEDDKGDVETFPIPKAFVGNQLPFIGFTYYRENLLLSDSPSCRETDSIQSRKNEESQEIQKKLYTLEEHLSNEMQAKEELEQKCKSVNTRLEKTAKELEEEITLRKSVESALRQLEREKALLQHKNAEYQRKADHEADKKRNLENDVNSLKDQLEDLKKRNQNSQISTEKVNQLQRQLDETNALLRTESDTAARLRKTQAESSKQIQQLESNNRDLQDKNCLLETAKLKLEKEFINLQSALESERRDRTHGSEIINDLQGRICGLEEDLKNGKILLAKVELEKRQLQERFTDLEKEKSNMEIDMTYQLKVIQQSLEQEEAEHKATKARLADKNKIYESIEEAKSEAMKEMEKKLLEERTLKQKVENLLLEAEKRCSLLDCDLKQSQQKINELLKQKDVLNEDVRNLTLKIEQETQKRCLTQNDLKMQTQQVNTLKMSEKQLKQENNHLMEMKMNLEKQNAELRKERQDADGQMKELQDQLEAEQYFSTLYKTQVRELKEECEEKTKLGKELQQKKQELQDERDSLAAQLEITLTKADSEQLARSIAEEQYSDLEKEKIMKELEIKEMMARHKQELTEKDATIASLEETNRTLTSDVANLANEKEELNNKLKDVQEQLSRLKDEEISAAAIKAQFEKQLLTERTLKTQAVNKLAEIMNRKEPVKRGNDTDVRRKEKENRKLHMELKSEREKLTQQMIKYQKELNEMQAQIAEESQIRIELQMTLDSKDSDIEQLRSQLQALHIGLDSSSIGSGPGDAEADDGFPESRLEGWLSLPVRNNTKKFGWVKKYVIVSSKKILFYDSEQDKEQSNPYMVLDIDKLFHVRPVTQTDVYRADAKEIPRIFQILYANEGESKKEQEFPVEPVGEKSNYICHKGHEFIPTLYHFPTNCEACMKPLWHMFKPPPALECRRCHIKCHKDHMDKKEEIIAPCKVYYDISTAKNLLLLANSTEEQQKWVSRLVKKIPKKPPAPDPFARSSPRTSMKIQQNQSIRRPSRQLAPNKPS

Compound	test	setting	scale	quantity	result
CC(C)[C@H]1NC(=O)C[C@H]2/C=C/CCSSC[C@@H](NC1=O)C(=O)N[C@H](Cc1cccc3ccccc13)C(=O)NCC(=O)O2	enzyme activity, inhibitor	10 µM		inhibition	-2.7%
C[C@@H]1COCCN1c1nc(NCc2cccnc2C(F)(F)F)c2cccnc2n1	inhibitor			IC50	> 100 µM
Nc1ccc(/C=C/C(=O)N2CCc3c(oc4c(-c5ccc(F)cc5)cc(-c5ccc(C(=O)N6CCC(F)(F)CC6)cn5)cc34)C2)cn1	binding, competition with immobilised ligand	1 µM		remaining binding	88%
C[C@H](NCc1ccc(-c2ccc(C(F)(F)F)cc2)cc1)C(N)=O	cell-free assay, competition with immobilised ligand	1 µM		inhibition	0%
O=C1NC(=O)c2c1c1cc(F)c[n+]3c1c1c2c2cc(O)ccc2[n]1[Ru-4]312([N]=C=S)[S+]3CC[S+]1CC[S+]2CC3 (centres unmarked)	enzyme activity	100 nM, human enzyme, added: 10 µM ATP	reference: untreated	remaining activity	91%
CCOC(=O)[C@@H]1Cc2c(cc([N+](=O)[O-])cc2[N+](=O)[O-])[C@H](O)[C@]12C(=O)Nc1ccc(Br)cc12	binding, competition with immobilised ligand	0.1 µM		remaining binding	24%
O=C(N[C@@H]1c2ccccc2C[C@H]1N1CCCC1)c1ccc(-c2ccnc3[nH]ccc23)nc1	binding, competition with immobilised ligand	3 µM		remaining binding	0%
CS(C)(=O)=Nc1ccc(-c2ccc(-c3nc4cc(O[C@@H]5CO[C@H]6[C@@H]5OC[C@H]6O)[nH]c4cc3F)cc2)cc1	enzyme activity, inhibitor	10 µM		inhibition	13%

For quick reference, copied from above:
Compound	test	setting	scale	quantity	result
CC(C)[C@H]1NC(=O)C[C@H]2/C=C/CCSSC[C@@H](NC1=O)C(=O)N[C@H](Cc1cccc3ccccc13)C(=O)NCC(=O)O2	enzyme activity, inhibitor	10 µM		inhibition	-2.7%
